Experimental data collected from several papers.
Lines come from different studies, so protocols differ. Several values in a cell are separate wells, animals, samples, runs or records. In brackets after ≈: the same amount, converted by molar mass.

COC(=O)c1ccc(O)cc1  inhibition (Helicobacter pylori; microbial growth, broth dilution; 7.81 µg/mL): 100%
CC1(C)CC[C@]2(C(=O)O)CC[C@]3(C)C(=CC[C@@H]4[C@@]5(C)CC[C@@H]6O[C@H](C[C@H]7O[C@H](CO)[C@@H](O)[C@H](O)[C@H]7O)OC[C@@]6(C)[C@@H]5CC[C@]43C)[C@@H]2C1  inhibition (Leishmania mexicana; parasite growth, resazurin; 50 µM, amastigote): 96.3%
CN(Cc1ccc(C(C)(C)C)cc1)Cc1cccc2ccccc12  inhibition zone (Trichophyton mentagrophytes; microbial growth, disc diffusion; ATCC18748; 0.512 µg/mL, 72 h): ≥ 55 mm
COc1cc(-c2cc(=O)c3c(O)cc(O)cc3o2)ccc1O  inhibition (Helicobacter pylori; microbial growth, broth dilution; 0.48 µg/mL): 16.1%
CN(c1ccc(F)cc1)c1c(-c2cccc(F)n2)nc2ccccn12  EC50 (Leishmania infantum; parasite growth; intracellular, amastigote): 10 µM
CN(Cc1ccc(C2(C(F)(F)F)CC2)cc1)Cc1cccc2ccccc12  inhibition zone (Trichophyton mentagrophytes; microbial growth, disc diffusion; ATCC18748; 0.0005 µg/mL, 72 h): 0 mm
O=c1cc(-c2ccc(O)cc2)oc2cc(O)cc(O)c12  inhibition (Helicobacter pylori; microbial growth, broth dilution; 15.63 µg/mL): 100%
Cc1ccc2nc(-c3ccccc3)cn2c1  EC50 (Leishmania infantum; parasite growth; intracellular, amastigote): > 63.1 µM
O=C(Nc1ccc(Oc2ccc3nc(NC(=O)c4ccccc4)[nH]c3c2)cc1)Nc1cc(C(F)(F)F)ccc1F  EC50 (Trypanosoma brucei; parasite growth): 0.794 µM
CN1CCN(C(=O)[C@@H]2CCCN2C(=O)N[C@]23CCC(C)(C)C[C@H]2C2=CC[C@@H]4[C@@]5(C)CC[C@@H]6OC(C)(C)OC[C@@]6(C)[C@@H]5CC[C@@]4(C)[C@]2(C)CC3)CC1  inhibition (Leishmania mexicana; parasite growth, resazurin; 50 µM, amastigote): 97.9%
CC(C)[C@@H]1NC(=O)[C@@H](C)NC(=O)[C@H]([C@@H](C)O)NC(=O)[C@@H](CCCN)NC(=O)[C@H](Cc2ccccc2)NC(=O)[C@@H](Cc2ccccc2)NC1=O  IC90 (Balamuthia mandrillaris; parasite growth, ATP luminescence): > 20 µM
Nc1nccc(-c2c(-c3ccc(F)cc3)ncn2C2CCC(O)CC2)n1 (centres unmarked)  EC50 (Trypanosoma brucei; parasite growth): 1.26 µM
CN[C@H](CC(C)C)C(=O)N[C@H]1C(=O)N[C@@H](CC(N)=O)C(=O)N[C@H]2C(=O)N[C@H]3C(=O)N[C@H](C(=O)N[C@H](C(=O)O)c4cc(O)cc(O)c4-c4cc3ccc4O)[C@H](O)c3ccc(c(Cl)c3)Oc3cc2cc(c3O[C@@H]2O[C@H](CO)[C@@H](O)[C@H](O)[C@H]2O[C@H]2C[C@](C)(N)[C@H](O)[C@H](C)O2)Oc2ccc(cc2Cl)[C@H]1O  MIC90 (Streptococcus pneumoniae; microbial growth; clinical isolate): 1 µg/mL (≈ 0.69 µM)
Cc1[nH]c(C(=O)Nc2ccc(C(=O)NCC(=O)O)cc2N2CCNCC2)c(Cl)c1Cl.Cl  MIC (Klebsiella aerogenes; microbial growth, broth dilution; ATCC13408): > 32 µg/mL
C=C[C@@]1(C)C=C2CC[C@@H]3[C@](C)(CCC[C@@]3(C)C(=O)O)[C@H]2CC1  inhibition (Helicobacter pylori; microbial growth, broth dilution; 1.95 µg/mL): 49.7%
CCc1ccc(C(=O)CSc2nc(C)cc(C)c2C#N)cc1  EC50 (Leishmania infantum; parasite growth; mouse Macrophage; intracellular, amastigote): > 64 µM
CCCN1CCC=C(c2ccc(Nc3nc(Nc4ccccc4C(N)=O)c4cc[nH]c4n3)c(C)c2)C1  EC50 (Trypanosoma brucei; parasite growth): 0.398 µM
Oc1cc(O)c2c(c1)O[C@H](c1cc(O)c(O)c(O)c1)[C@@H](O)C2  inhibition zone (Streptococcus mutans; microbial growth, disc diffusion; 500 µg/disc): 12.5 mm
CC1(C)CC[C@]2(C(=O)OCc3ccc([N+](=O)[O-])cc3)CC[C@]3(C)C(=CC[C@@H]4[C@@]5(C)CC[C@H](O)[C@@](C)(CO)[C@@H]5CC[C@]43C)[C@@H]2C1  inhibition (Leishmania mexicana; parasite growth, resazurin; 50 µM, amastigote): 97.3%
O=c1oc2c(O)c(O)cc3c(=O)oc4c(O)c(O)cc1c4c23  inhibition zone (Streptococcus mutans; microbial growth, disc diffusion; 500 µg/disc): 17 mm
COc1cc(C)c(C#N)c(SCC(=O)c2ccccc2)n1  EC50 (Leishmania infantum; parasite growth; mouse Macrophage; intracellular, amastigote): > 64 µM
CCCS(=O)(=O)Oc1ccc(C=NNC(=O)CSc2nc3c(C)cccc3c(=O)n2-c2ccccc2)cc1OC  inhibition zone (Salmonella enterica; microbial growth, well diffusion; TYPHIMURIUM; 20 µg/mL): 2 mm
O=C(O[C@H]1CN[C@H](C#Cc2cc3ncnc(Nc4ccc(OCc5cccc(F)c5)c(Cl)c4)c3s2)C1)N1CCOCC1  EC50 (Trypanosoma brucei; parasite growth): 2 µM
COc1ccc(-c2cc(=O)c3c(O)cc(O[C@@H]4O[C@H](CO)[C@@H](O)[C@H](O)[C@H]4O)cc3o2)cc1O  inhibition (Helicobacter pylori; microbial growth, broth dilution; 3.9 µg/mL): 100%
CC(C)(C)OC(=O)N[C@H]1CCN(c2cc(C(=O)NCC(=O)O)ccc2NC(=O)c2cc(Br)c(Br)[nH]2)C1  MIC (Acinetobacter baumannii; microbial growth, broth dilution; ATCC19606): > 32 µg/mL
O=c1cc(-c2ccc(O)c(O)c2)oc2cc(O)cc(O)c12  inhibition (Helicobacter pylori; microbial growth, broth dilution; 0.24 µg/mL): 31.8%
C[C@H](O)[C@H]1OC(C[C@@H]2OC[C@@]3(C)[C@@H]4CC[C@]5(C)[C@H](CC=C6[C@@H]7CC(C)(C)CC[C@]7(C(=O)O)CC[C@]65C)[C@@]4(C)CC[C@@H]3O2)[C@@H](O)[C@@H]1O (some centres unmarked)  inhibition (Leishmania mexicana; parasite growth, resazurin; 50 µM, amastigote): 97.8%
Cc1cc(C)c(C#N)c(SCC(=O)c2ccncc2)n1  EC50 (Trypanosoma brucei; parasite growth, resazurin): > 64 µM
C[C@@H]1O[C@@H](O[C@H]2[C@H](O[C@H]3CC[C@@]4(C)[C@@H](CC[C@]5(C)[C@@H]4CC=C4[C@@H]6CC(C)(C)CC[C@]6(C(=O)O)CC[C@]45C)[C@]3(C)CO)OC[C@H](O)[C@@H]2O)[C@H](O)[C@H](O)[C@H]1O  inhibition (Leishmania mexicana; parasite growth, resazurin; 50 µM, amastigote): 95.1%
NS(=O)(=O)c1ccc(-c2cc3ccncc3cc2OCc2ccccc2)cc1  EC50 (Trypanosoma brucei; parasite growth): 20 µM
Fc1ccc(Nc2c(-c3ccccn3)nc3cccnn23)cc1  IC50 (Leishmania infantum; parasite growth; intracellular, amastigote): 9.51 µM and 22.3 µM
CC1(C)CC[C@]2(NC(=O)O)CC[C@]3(C)C(=CC[C@@H]4[C@@]5(C)CC[C@@H]6O[C@H](C[C@H]7O[C@H](CO)[C@@H](O)[C@H](O)[C@@H]7O)OC[C@@]6(C)[C@@H]5CC[C@]43C)[C@@H]2C1  inhibition (Leishmania mexicana; parasite growth, resazurin; 50 µM, amastigote): 97%
O=C1Nc2ccc(C(=O)c3ccco3)cc2C1=Cc1cc(Cl)c(O)c(Cl)c1  EC50 (Trypanosoma brucei; parasite growth): 1.26 µM
Cc1cc(C)nc(SCC(=O)c2cccs2)n1  EC50 (Trypanosoma brucei; parasite growth, resazurin): > 64 µM
COc1ccc2nc(-c3cc(N(C)C)ccn3)c(Nc3ccc(F)cc3)n2c1  EC50 (Leishmania infantum; parasite growth; intracellular, amastigote): 1.58 µM
C[C@H]1O[C@H](C[C@@H]2OC[C@@]3(C)[C@@H]4CC[C@]5(C)[C@H](CC=C6[C@@H]7CC(C)(C)CC[C@]7(C(=O)O)CC[C@]65C)[C@@]4(C)CC[C@@H]3O2)[C@H](O)[C@@H](O)[C@@H]1O  inhibition (Leishmania mexicana; parasite growth, resazurin; 50 µM, amastigote): 100%
CC(C)[C@@H]1NC(=O)[C@@H](CCCCN)NC(=O)[C@H]([C@@H](C)O)NC(=O)[C@@H](CCCCN)NC(=O)[C@H](Cc2ccccc2)NC(=O)[C@@H](Cc2ccccc2)NC1=O  IC50 (Balamuthia mandrillaris; parasite growth, ATP luminescence; 72 h): ≤ 5 µM
Cc1ccc(N(c2ccc(NC(=O)CN(C)c3ccccc3N3CCCC3=O)cc2)C(C)C)cc1  IC90 (Plasmodium falciparum; parasite growth, SYBR Green; DD2; blood stage): 0.00879 µM
CC(C)[C@@H]1NC(=O)[C@@H](CCCNC(=N)N)NC(=O)[C@H]([C@@H](C)O)NC(=O)[C@@H](CN)NC(=O)[C@H](Cc2ccccc2)NC(=O)[C@@H](Cc2ccccc2)NC1=O  IC50 (Balamuthia mandrillaris; parasite growth, ATP luminescence): 18 µM
N#Cc1cccnc1SCC(=O)c1ccc(F)cc1  EC50 (Leishmania infantum; parasite growth; mouse Macrophage; intracellular, amastigote): 40.7 µM
CC(C)[C@@H]1NC(=O)[C@@H](Cc2c[nH]cn2)NC(=O)[C@H]([C@@H](C)O)NC(=O)[C@@H](CCCN)NC(=O)[C@H](Cc2ccccc2)NC(=O)[C@@H](Cc2ccccc2)NC1=O  IC90 (Balamuthia mandrillaris; parasite growth, ATP luminescence): 13.1 µM
Cc1cc(C(F)(F)F)c(C#N)c(SCC(=O)c2ccccc2)n1  EC50 (Trypanosoma brucei; parasite growth, resazurin; RHODESIENSE): 25.9 µM
C[C@@H](Oc1cc(-n2cnc3ccc(OC[C@@H](O)CO)cc32)sc1C(N)=O)c1ccccc1Cl  EC50 (Trypanosoma brucei; parasite growth): 0.2 µM
CCCN(c1ccc(F)cc1)c1c(-c2ccccn2)nc2ccccn12  IC50 (Leishmania infantum; parasite growth; intracellular, amastigote): 0.67 µM and 1.7 µM
CC1(C)CC[C@]2(C(=O)O)CC[C@]3(C)C(=CC[C@@H]4[C@@]5(C)CC[C@H](O[C@@H]6O[C@H](CO)[C@@H](O)[C@H](O)[C@H]6O)[C@@](C)(CO)[C@@H]5CC[C@]43C)[C@@H]2C1  inhibition (Leishmania mexicana; parasite growth, resazurin; 50 µM, amastigote): 97.3%
Cc1cc(C)c(C#N)c(SCC(=O)c2ccccc2)n1  EC50 (Leishmania infantum; parasite growth; mouse Macrophage; intracellular, amastigote): > 64 µM
COc1cc([C@H]2OC[C@H]3[C@@H]2CO[C@@H]3c2cc(OC)c(O)c(OC)c2)cc(OC)c1O  inhibition (Helicobacter pylori; microbial growth, broth dilution; 7.81 µg/mL): 100%
Cc1cc(C)c(C#N)c(SCC(=O)c2ccc(Cl)cc2)n1  EC50 (Trypanosoma brucei; parasite growth, resazurin): 60.1 µM
CC(C)[C@@H]1NC(=O)[C@@H](CCCNC(=N)N)NC(=O)[C@H]([C@@H](C)O)NC(=O)[C@@H](CCCN)NC(=O)[C@H](Cc2ccccc2)NC(=O)[C@@H](Cc2ccc(O)cc2)NC1=O  IC50 (Balamuthia mandrillaris; parasite growth, ATP luminescence): > 20 µM
COc1cccc(-c2nc3ccccn3c2Nc2ccc(F)cc2)n1  IC50 (Leishmania infantum; parasite growth; intracellular, amastigote): > 64 µM

Some of these lines once more:
Nc1nccc(-c2c(-c3ccc(F)cc3)ncn2C2CCC(O)CC2)n1 (centres unmarked)  EC50 (Trypanosoma brucei; parasite growth): 1.26 µM
CCc1ccc(C(=O)CSc2nc(C)cc(C)c2C#N)cc1  EC50 (Leishmania infantum; parasite growth; mouse Macrophage; intracellular, amastigote): > 64 µM
CCCN1CCC=C(c2ccc(Nc3nc(Nc4ccccc4C(N)=O)c4cc[nH]c4n3)c(C)c2)C1  EC50 (Trypanosoma brucei; parasite growth): 0.398 µM
Fc1ccc(Nc2c(-c3ccccn3)nc3cccnn23)cc1  IC50 (Leishmania infantum; parasite growth; intracellular, amastigote): 9.51 µM and 22.3 µM
